Results of several laboratories.
A part holds a random share of what one study measured.
Chain of UniProt P42679 (whole entry, looked up): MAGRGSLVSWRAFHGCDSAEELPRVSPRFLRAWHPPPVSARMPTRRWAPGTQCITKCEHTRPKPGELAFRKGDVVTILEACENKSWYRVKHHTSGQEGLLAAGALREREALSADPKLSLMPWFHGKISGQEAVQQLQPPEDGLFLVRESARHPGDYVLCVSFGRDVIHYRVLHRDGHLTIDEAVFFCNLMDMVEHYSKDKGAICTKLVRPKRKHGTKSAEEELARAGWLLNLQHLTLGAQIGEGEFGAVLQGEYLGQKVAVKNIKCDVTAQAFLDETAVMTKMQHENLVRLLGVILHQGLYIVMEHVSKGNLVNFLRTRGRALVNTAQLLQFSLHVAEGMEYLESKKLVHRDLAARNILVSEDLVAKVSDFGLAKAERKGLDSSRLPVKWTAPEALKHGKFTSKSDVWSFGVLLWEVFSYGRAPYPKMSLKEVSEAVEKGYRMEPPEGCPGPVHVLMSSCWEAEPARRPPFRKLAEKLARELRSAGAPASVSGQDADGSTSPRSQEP
Chain of UniProt Q8TDR2 (whole entry, looked up): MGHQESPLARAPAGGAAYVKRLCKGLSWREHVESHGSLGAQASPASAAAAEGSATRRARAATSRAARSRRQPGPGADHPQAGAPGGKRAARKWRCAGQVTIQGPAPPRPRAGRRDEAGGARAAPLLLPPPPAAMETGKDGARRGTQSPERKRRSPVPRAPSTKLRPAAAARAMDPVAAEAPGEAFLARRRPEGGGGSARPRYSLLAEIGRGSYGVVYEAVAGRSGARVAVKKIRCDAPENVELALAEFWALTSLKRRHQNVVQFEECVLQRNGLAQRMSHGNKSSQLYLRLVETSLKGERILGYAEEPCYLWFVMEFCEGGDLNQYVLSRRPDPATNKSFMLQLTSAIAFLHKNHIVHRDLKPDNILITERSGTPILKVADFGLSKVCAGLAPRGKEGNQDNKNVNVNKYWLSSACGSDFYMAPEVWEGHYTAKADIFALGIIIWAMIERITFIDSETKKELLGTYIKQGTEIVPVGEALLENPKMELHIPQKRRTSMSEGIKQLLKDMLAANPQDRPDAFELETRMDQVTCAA
Chain of UniProt O75582 (whole entry, looked up): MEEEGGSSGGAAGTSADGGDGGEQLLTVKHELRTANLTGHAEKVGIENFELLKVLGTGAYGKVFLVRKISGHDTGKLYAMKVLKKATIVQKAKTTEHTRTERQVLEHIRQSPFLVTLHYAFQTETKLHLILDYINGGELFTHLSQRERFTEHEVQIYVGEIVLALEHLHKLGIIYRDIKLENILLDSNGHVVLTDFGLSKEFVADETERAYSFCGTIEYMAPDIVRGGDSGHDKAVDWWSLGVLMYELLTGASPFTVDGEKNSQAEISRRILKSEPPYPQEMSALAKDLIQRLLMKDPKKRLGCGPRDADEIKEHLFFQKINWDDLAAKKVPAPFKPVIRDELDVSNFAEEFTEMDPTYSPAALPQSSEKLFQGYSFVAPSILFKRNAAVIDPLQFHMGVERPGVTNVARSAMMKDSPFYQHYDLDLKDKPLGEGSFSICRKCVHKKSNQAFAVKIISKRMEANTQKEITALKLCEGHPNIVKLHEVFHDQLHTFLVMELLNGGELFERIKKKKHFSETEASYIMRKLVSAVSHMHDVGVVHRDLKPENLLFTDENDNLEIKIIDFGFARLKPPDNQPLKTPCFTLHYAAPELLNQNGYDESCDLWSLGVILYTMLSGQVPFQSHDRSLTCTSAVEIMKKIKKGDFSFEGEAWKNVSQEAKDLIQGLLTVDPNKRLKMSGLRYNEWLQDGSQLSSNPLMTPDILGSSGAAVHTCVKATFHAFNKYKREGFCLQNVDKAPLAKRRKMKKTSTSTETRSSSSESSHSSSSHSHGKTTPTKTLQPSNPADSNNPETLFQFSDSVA
Chain of UniProt O94768 (whole entry, looked up): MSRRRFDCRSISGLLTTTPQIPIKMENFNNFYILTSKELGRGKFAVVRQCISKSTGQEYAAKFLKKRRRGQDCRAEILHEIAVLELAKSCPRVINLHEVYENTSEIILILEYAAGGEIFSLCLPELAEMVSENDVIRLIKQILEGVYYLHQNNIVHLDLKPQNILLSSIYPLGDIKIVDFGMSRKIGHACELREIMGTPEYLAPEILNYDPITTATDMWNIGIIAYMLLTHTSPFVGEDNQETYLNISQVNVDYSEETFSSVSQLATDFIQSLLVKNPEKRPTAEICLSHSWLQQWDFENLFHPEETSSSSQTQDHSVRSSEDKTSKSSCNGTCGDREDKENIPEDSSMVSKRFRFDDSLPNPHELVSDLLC
Chain of UniProt Q9BWU1 (whole entry, looked up): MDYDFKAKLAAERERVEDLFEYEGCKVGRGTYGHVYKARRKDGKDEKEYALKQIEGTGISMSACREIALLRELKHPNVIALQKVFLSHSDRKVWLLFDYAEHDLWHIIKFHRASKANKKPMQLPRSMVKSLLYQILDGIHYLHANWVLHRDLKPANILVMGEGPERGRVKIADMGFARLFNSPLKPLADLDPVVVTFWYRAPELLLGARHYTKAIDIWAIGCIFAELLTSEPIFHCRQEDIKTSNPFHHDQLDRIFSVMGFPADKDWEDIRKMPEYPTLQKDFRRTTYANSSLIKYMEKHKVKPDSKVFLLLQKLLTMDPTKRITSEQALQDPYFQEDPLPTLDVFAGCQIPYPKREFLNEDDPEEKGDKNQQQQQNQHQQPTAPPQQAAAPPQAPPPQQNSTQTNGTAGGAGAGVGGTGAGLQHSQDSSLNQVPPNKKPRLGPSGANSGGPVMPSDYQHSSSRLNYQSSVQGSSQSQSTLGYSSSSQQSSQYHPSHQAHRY
Chain of UniProt P57059 (whole entry, looked up): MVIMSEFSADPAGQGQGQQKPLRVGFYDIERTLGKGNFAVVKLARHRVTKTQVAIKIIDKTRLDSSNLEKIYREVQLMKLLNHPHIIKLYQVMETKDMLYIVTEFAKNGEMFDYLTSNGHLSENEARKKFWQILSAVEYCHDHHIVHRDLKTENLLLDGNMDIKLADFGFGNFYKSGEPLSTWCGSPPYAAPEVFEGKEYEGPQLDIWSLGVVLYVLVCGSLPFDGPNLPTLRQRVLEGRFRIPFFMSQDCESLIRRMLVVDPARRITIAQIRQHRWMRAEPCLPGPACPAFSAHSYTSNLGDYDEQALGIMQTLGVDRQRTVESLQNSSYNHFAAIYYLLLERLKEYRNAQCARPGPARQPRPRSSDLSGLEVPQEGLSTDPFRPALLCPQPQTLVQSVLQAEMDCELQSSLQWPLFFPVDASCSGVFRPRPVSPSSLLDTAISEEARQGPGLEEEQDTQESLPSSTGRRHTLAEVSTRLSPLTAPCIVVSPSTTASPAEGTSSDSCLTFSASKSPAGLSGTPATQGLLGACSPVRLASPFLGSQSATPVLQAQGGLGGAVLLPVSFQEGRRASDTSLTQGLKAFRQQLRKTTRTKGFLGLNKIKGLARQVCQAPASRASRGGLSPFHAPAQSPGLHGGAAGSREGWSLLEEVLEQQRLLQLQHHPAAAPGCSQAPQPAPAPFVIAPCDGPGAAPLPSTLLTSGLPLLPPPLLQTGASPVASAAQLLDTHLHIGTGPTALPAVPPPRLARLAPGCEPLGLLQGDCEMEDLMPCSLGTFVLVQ
Chain of UniProt O94806 (whole entry, looked up): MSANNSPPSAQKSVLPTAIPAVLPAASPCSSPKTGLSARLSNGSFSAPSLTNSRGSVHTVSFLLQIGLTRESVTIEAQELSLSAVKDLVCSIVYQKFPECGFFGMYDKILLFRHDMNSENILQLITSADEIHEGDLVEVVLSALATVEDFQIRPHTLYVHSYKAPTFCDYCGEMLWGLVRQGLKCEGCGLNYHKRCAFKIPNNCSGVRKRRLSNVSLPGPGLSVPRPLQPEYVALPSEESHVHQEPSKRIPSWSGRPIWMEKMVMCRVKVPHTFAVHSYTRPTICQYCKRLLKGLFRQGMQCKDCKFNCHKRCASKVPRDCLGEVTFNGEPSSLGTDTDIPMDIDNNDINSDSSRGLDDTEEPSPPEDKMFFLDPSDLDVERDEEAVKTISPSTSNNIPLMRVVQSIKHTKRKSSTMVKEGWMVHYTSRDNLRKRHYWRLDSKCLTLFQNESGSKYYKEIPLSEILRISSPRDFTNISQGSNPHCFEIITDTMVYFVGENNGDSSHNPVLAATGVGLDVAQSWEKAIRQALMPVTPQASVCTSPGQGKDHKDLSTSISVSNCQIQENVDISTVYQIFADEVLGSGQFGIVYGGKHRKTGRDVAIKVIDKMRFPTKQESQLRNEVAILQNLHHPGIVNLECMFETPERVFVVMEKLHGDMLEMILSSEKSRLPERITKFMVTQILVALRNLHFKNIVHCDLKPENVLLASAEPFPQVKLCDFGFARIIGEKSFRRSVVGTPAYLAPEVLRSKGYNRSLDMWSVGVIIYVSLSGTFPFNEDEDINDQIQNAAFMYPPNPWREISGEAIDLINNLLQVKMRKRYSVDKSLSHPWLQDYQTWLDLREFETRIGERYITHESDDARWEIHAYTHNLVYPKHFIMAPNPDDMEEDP

Block 1
Target: Calcium/calmodulin-dependent protein kinase type II subunit alpha (CAMK2A, Homo sapiens, UniProt Q9UQM7)
Chain of UniProt Q9UQM7 (whole entry, looked up): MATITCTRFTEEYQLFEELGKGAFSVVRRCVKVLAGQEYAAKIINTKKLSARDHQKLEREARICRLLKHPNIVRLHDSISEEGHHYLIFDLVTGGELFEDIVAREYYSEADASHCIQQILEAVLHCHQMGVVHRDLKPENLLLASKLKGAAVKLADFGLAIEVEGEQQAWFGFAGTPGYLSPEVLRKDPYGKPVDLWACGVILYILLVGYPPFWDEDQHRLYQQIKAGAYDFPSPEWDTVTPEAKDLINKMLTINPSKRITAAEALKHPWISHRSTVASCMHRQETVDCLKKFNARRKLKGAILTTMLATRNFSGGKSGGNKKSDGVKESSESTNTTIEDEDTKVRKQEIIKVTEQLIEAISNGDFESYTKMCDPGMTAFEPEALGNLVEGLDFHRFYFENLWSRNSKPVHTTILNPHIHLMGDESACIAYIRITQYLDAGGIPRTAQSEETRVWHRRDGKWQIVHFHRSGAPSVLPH
Effect on: enzyme activity
Action: inhibitor
Tested at: 10 µM
The inhibition of `CC(C)=CCC[C@@H](C)CC=O` is reported as 2%.
The inhibition of `CC(=O)N[C@@H](CC(=O)N[C@@H](CCC(=O)O)C(=O)O)C(=O)O` is reported as 6%.
`C[C@H]1O[C@@H](n2cnc3c(N)ncnc32)[C@H](O)[C@@H]1O` gave an inhibition of -21%.
For `N=C(N)NC(=N)N1CCOCC1`, the inhibition was 4%.
With `O=C(O)Cc1c[nH]c2ccc(O)cc12` the inhibition was -63%.
With `COc1c2occc2cc2ccc(=O)oc12` the inhibition was 4%.
`O=c1c2ccccc2nc2n1CCc1c-2[nH]c2ccccc12` has an inhibition of 9%.

Block 2
Target: Bromodomain-containing protein 4, BD1 (BRD4, Homo sapiens, UniProt O60885)
Tested at: 50 µM
For `Cn1c(=O)n(-c2ccc(C(C)(C)C#N)cc2)c2c3cc(-c4cnc5ccccc5c4)ccc3ncc21`, the inhibition was -9.1%.
`NC1(C(=O)N[C@@H](CCO)c2ccc(Cl)cc2)CCN(c2ncnc3[nH]ccc23)CC1` has an inhibition of 7.55%.
`COc1cc(Nc2ncc(F)c(Nc3ccc4c(n3)N(COP(=O)(O)O)C(=O)C(C)(C)O4)n2)cc(OC)c1OC` has an inhibition of -22.4%.
`O=C(Nc1c[nH]nc1-c1nc2ccc(CN3CCOCC3)cc2[nH]1)NC1CC1` gave an inhibition of -5.55%.
With `COc1cccc2cc(-c3nc([C@H]4CC[C@H](C(=O)O)CC4)n4ncnc(N)c34)[nH]c12` the inhibition was 2.15%.
The inhibition of `C#Cc1cccc(Nc2ncnc3cc(OCCOC)c(OCCOC)cc23)c1` is reported as -5.2%.
With `COc1cc(N2CCC(N3CCN(C)CC3)CC2)ccc1Nc1ncc(Cl)c(Nc2ccccc2P(C)(C)=O)n1` the inhibition was 27.4%.
The inhibition of `N#C/C(=C(/N)SC1C=CC=CC1)c1cccc(C(O)c2ccncc2)c1` (centres unmarked) is reported as 18.6%.

Block 3
SMILES: CO[C@@H](C)c1c(Nc2ccc([C@H](N(C)C(=O)C3CCS(=O)(=O)CC3)C(F)(F)F)cc2)cnc2cc(Cl)nn12
Tested at: 1 µM
SIK1 (Homo sapiens, UniProt P57059); competition binding — remaining binding: 87%.
The remaining binding was 85% (PRKD3 (Homo sapiens, UniProt O94806); cell-free assay, competition with immobilised ligand).
The remaining binding was 88% (Ribosomal protein S6 kinase alpha-5, C-terminal kinase domain (RPS6KA5, Homo sapiens, UniProt O75582); cell-free assay, competition with immobilised ligand).
It gave 99% for remaining binding (MATK (Homo sapiens, UniProt P42679); cell-free assay, competition with immobilised ligand).
The remaining binding was 100% (ALK (Homo sapiens, UniProt Q9UM73); cell-free assay, competition with immobilised ligand).
STK17B (Homo sapiens, UniProt O94768); cell-free assay, competition with immobilised ligand — remaining binding: 99%.
The remaining binding was 96% (EIF2AK2 (Homo sapiens, UniProt P19525); cell-free assay, competition with immobilised ligand).
MTOR (Homo sapiens, UniProt P42345); cell-free assay, competition with immobilised ligand — remaining binding: 100%.
For PDGFRB (Homo sapiens, UniProt P09619); cell-free assay, competition with immobilised ligand: remaining binding read 100%.
The remaining binding was 95% (PAK4 (Homo sapiens, UniProt O96013); cell-free assay, competition with immobilised ligand).
The remaining binding was 80% (STK35 (Homo sapiens, UniProt Q8TDR2); cell-free assay, competition with immobilised ligand).
CDK19 (Homo sapiens, UniProt Q9BWU1); competition binding — remaining binding: 73%.
SYK (Homo sapiens, UniProt P43405); cell-free assay, competition with immobilised ligand — remaining binding: 82%.
The remaining binding was 100% (Aurora kinase A (AURKA, Homo sapiens, UniProt O14965); cell-free assay, competition with immobilised ligand).
The remaining binding was 100% (PRPF4B (Homo sapiens, UniProt Q13523); cell-free assay, competition with immobilised ligand).

Block 4
Cell line: mouse MPNST tumor cells
Method: high-content nuclear imaging
Measured: cell number
Tested at: 10 µM
Time: 12 h
Setting: mean of 2 replicates
Relative to: plate mean
Reading: higher = more cells
`CC1CC(OC(=O)c2ccccc2O)CC(C)(C)C1` (centres unmarked) gave a nuclei count of 1.12 z-score.
With `OCC(O)CN1CCN(c2ccccc2)CC1` (racemic) the nuclei count was 1.83 z-score.
`CC(C)CCn1c(CN2CCN(C(=O)C3CC3)CC2)nc2c1c(=O)n(C)c(=O)n2C` has a nuclei count of 0.689 z-score.
`CN1CCC(=C2c3ccccc3C=Cc3ccccc32)CC1` gave a nuclei count of 0.607 z-score.
`O=C(c1ccc(F)cc1)C1CCN(CCn2c(=O)[nH]c3ccccc3c2=O)CC1` has a nuclei count of 2.07 z-score.
The nuclei count of `O=C(O)CCc1ccc(NCc2cccc(Oc3ccccc3)c2)cc1` is reported as 0.111 z-score.
`COc1nc(-c2ccc3c(c2)OCO3)n(-c2ccc(NC(=O)CSc3ccccc3)cc2)n1` gave a nuclei count of 1.17 z-score.
With `Nc1ccc(S(=O)(=O)Nc2ccc(Cl)nn2)cc1` the nuclei count was 1.91 z-score.

Excerpt of the above (block 3):
The remaining binding was 100% (ALK (Homo sapiens, UniProt Q9UM73); cell-free assay, competition with immobilised ligand).
The remaining binding was 100% (Aurora kinase A (AURKA, Homo sapiens, UniProt O14965); cell-free assay, competition with immobilised ligand).
STK17B (Homo sapiens, UniProt O94768); cell-free assay, competition with immobilised ligand — remaining binding: 99%.
The remaining binding was 100% (PRPF4B (Homo sapiens, UniProt Q13523); cell-free assay, competition with immobilised ligand).
For PDGFRB (Homo sapiens, UniProt P09619); cell-free assay, competition with immobilised ligand: remaining binding read 100%.
